Published values gathered from unrelated publications.
Protocols differ between the studies behind these lines. Values joined by “and” are separate records of one study, mostly repeats; a detail may differ.
Organism: SARS-CoV-2

CC(=O)O[C@H]1Cc2ccccc2N(C(N)=O)c2ccccc21  IC50 (viral replication; Huh-7): > 2 µM
O=C1c2c(O)cccc2Cc2cccc(O)c21  EC50 (viral replication, GFP plate reader screen; cell-based): > 100 µM
CNCCN(C)c1nc(NC(C)c2ccccc2)c2ccccc2n1 (centres unmarked)  efficacy (cytopathic effect; USA_WA1/2020; retest 8-point): 81.8%
Cc1nn(-c2ccc(Cl)cc2)c2c1C(c1ccc(I)cc1)C(C#N)=C(N)O2 (centres unmarked)  Ct value (RT-qPCR, refers to: viral RNA; Vero; 10 µM; higher means less virus): 24.4 cycles
COc1cc(/C=C/C(=O)CC(=O)/C=C/c2ccc(O)c(OC)c2)ccc1O  EC50 (viral replication, high-content imaging screen; cell-based): > 100 µM
O=C(CCc1ccc(CC2CCN(Cc3c[nH]c4ccccc34)CC2)cc1)N1CCCC1  AC50 (cytopathic effect, cell-based CPE; USA_WA1/2020; round 2, 5-point dilution): 12.6 µM
Cc1cccc(CN2CCN(C(c3ccccc3)c3ccc(Cl)cc3)CC2)c1 (centres unmarked)  IC50 (viral replication; A549 expressing ACE2; inactive set pIC50 4): > 10 µM
CCCCN(CCCC)CCCOc1ccc(C(=O)c2c(CC)cc3ccccn23)cc1  EC50 (viral replication, high-content imaging screen; cell-based): > 100 µM
CC(C)(O)c1ccc2c(c1)C(=CCCN1CCC(O)(c3ccc(Cl)cc3)C(C)(C)C1)c1cccnc1CO2 (centres unmarked)  EC90 (viral replication, inhibitor; Vero E6, USA-WA1/2020; 24 h): > 2.5 µM
O=C(CN1CCC(CN2Cc3ccccc3C2=O)CC1)c1ccc(F)cc1  IC50 (viral replication, RT-qPCR; A549 expressing ACE2): > 10 µM
CCOc1ccc(NC(=O)c2cnn(-c3ccc(C)c(Cl)c3)c2C2CCNCC2)cc1  maximum response (cytopathic effect; USA_WA1/2020; round 1, 5-point): 88.9%
CN1CC[C@@H](NC(=O)Nc2ccc(C#N)cc2)C[C@@H]1c1nc2ccccc2[nH]1  IC50 (viral replication; Huh-7): > 2 µM
COc1cccc2c(N3CCc4ccccc4C3C)nc(Nc3ccc(F)cc3C)nc12 (centres unmarked)  EC90 (viral replication, inhibitor; Vero E6, USA-WA1/2020; 24 h): ~1.21 µM
O=c1c(O)c(-c2ccc(O)c(O)c2)oc2cc(O)cc(O)c12  viral replication inhibition (Vero E6; concentration not given, NYC laboratory): inactive
CNC(=O)[C@@H](c1ccccc1)N1CCc2cc(OC)c(OC)cc2[C@@H]1CCc1ccc(C(F)(F)F)cc1  EC50 (viral replication, high-content imaging screen; cell-based): > 25.1 µM
CC[C@H](C)C[C@H](C)CCCCCCCCC(=O)N[C@H]1C[C@@H](O)[C@@H](NCCN)NC(=O)[C@@H]2[C@@H](O)CCN2C(=O)[C@H]([C@H](O)CCN)NC(=O)[C@H]([C@H](O)[C@@H](O)c2ccc(O)cc2)NC(=O)[C@@H]2C[C@@H](O)CN2C(=O)[C@H]([C@@H](C)O)NC1=O  selectivity index (Vero; relative to: CC50 over IC50): 1
CC(=O)[C@H]1CC[C@H]2[C@@H]3CCC4=CC(=O)CC[C@]4(C)[C@H]3CC[C@]12C  IC50 (viral replication, anti-nucleoprotein immunostaining; Vero E6): 14.1 µM
COc1ccc(-c2cn3c(n2)sc2cc(C(=O)NCCCN4CCCCCC4)ccc23)cc1  maximum response (cytopathic effect; USA_WA1/2020; retest, 8-point, duplicates): 68.5%
Cc1nn(-c2ccc(Cl)cc2)c2c1C(c1c(Cl)cccc1Cl)C(C#N)=C(N)O2 (centres unmarked)  Ct value (RT-qPCR, refers to: viral RNA; Vero; 1 µM; higher means less virus): 23.8 cycles
CCN(CC)CCNC(=O)c1cc(-c2ccc(Br)s2)nc2ccccc12  efficacy (cytopathic effect; USA_WA1/2020; retest, 8-point, duplicates): 95.2%
CC(C)=CCc1c(O)ccc(C(=O)/C=C/c2ccc(O)cc2)c1O  CPE inhibition (viral replication; Vero E6; 3.125 µM): 0%
Cn1cc(-c2ccncc2)c(-c2ccc(OCc3ccc4ccccc4n3)cc2)n1  inhibition (viral replication; Vero E6, USA-WA1/2020; 2.5 µM): 46.7%
CNCC(O)CC12CCC(c3ccccc31)c1ccccc12 (centres unmarked)  EC50 (viral replication, high-content imaging screen; cell-based): > 100 µM
COc1cccc2c(NCc3ccccc3)nc(-n3c(N)nc4ccccc43)nc12  viral replication inhibition (Vero E6; concentration not given, NYC laboratory): inactive
O=C(/C=C/c1ccc(O)c(O)c1/C=C/c1ccc(O)c(O)c1)O[C@H](Cc1ccc(O)c(O)c1)C(=O)O  CPE inhibition (viral replication; Vero E6; 3.125 µM): 0%
CN1CCN(CCCN2c3ccccc3Sc3ccc(C(F)(F)F)cc32)CC1  IC50 (viral replication, RT-qPCR; A549 expressing ACE2): 1.78 µM
O=C(O[C@@H]1Cc2c(O)cc(O)cc2O[C@@H]1c1cc(O)c(O)c(O)c1)c1cc(O)c(O)c(O)c1  mean inhibition (viral cytopathic effect; Vero E6; 0.7812 µM): 0%
CCCc1nn(C)c2c(=O)[nH]c(-c3cc(S(=O)(=O)N4CCN(C)CC4)ccc3OCC)nc12  IC50 (viral replication; Huh-7): > 2 µM
CC(C)(C)[C@H](NC(=O)C(F)(F)F)C(=O)N1C[C@H]2[C@@H]([C@H]1C(=O)N[C@H](C#N)C[C@@H]1CCNC1=O)C2(C)C  inhibition (viral replication; Vero E6; 0.156 µM): 2.72% and 0.5% and 1.1%
Cc1nc(Nc2ncc(C(=O)Nc3c(C)cccc3Cl)s2)cc(N2CCN(CCO)CC2)n1  IC50 (viral replication; Huh-7): > 2 µM
O=C(CCCN1CCC(O)(c2ccc(Cl)cc2)CC1)c1ccc(F)cc1  viral replication inhibition (concentration not given, Paris laboratory): inactive
Cc1ccc2c(NC(C)c3ccccc3)nc(N3CCNCC3)nc2c1 (centres unmarked)  maximal response (cytopathic effect, cell-based CPE; USA_WA1/2020; round 2, 5-point dilution): 92.5%
Cn1cncc1[C@@](N)(c1ccc(Cl)cc1)c1ccc2c(c1)c(-c1cccc(Cl)c1)cc(=O)n2C  EC50 (viral replication, GFP plate reader screen; cell-based): > 100 µM
Cc1nn(-c2ccc(Cl)cc2)c2c1C(c1ccc(Br)cc1)C(C#N)=C(N)O2 (centres unmarked)  viral reduction (viral replication; Vero; 1 µM): 0.776%
COC1CC2CCC(C)C(O)(O2)C(=O)C(=O)N2CCCCC2C(=O)OC(C(C)CC2CCC(OCCOCc3cn(CCOCCOCCOCCOCCOCCOCCOCCOCCC(=O)NCCCCn4nc(-c5ccc6oc(N)nc6c5)c5c(N)ncnc54)nn3)C(OC)C2)CC(=O)C(C)C=C(C)C(O)C(OC)C(=O)C(C)CC(C)C=CC=CC=C1C (centres unmarked)  viral replication inhibition (concentration not given, Paris laboratory): inactive
COc1cc2c(cc1OC)CN(CCc1ccc(NC(=O)c3cccc4c(=O)c5cccc(OC)c5[nH]c34)cc1)CC2  IC50 (viral replication, RT-qPCR; A549-ACE2): 6.76 µM
C[C@H]1CN(C[C@H](Cc2ccccc2)C(=O)NCC(=O)O)CC[C@@]1(C)c1cccc(O)c1  IC50 (viral replication; Huh-7): > 2 µM
O=c1[nH]c(=O)n([C@H]2C[C@H](O)[C@@H](CO)O2)cc1/C=C/Br  viral replication inhibition (concentration not given, Paris laboratory): inactive
Cc1nn(-c2ccc(Cl)cc2)c2c1C(c1ccc(Cl)cc1Cl)C(C#N)=C(N)O2 (centres unmarked)  Ct value (RT-qPCR, refers to: viral RNA; Vero; 1 µM; higher means less virus): 23.4 cycles
COc1ccc(C[C@@H]2c3cc(Oc4cc(C[C@@H]5c6cc(O)c(OC)cc6CCN5C)ccc4O)c(OC)cc3CCN2C)cc1  CPE inhibition (viral replication; Vero E6; 1.562 µM): 0%
CC[C@@H]1C(=O)N(C)c2cnc(Nc3ccc(C(=O)N[C@H]4CC[C@H](N5CCN(CC6CC6)CC5)CC4)cc3OC)nc2N1C(C)C  EC50 (viral replication, GFP plate reader screen; cell-based): > 50.1 µM
CC(NC(=O)[C@H](Cc1ccccc1)NC(=O)OCc1ccccc1)C(=O)CF (some centres unmarked)  IC50 (viral replication; Huh-7): 0.011 µM
IVDTVSALV  antigen-specific T cell frequency (peptide, T cells from acute-phase patients; dose not given): 0.0266%
N=C(N)c1ccc2cc(OC(=O)c3ccc(N=C(N)N)cc3)ccc2c1  viral replication inhibition (Vero E6; concentration not given, NYC laboratory): inactive
Cc1ncccc1-c1nc2cc(C(=O)NCCCc3ccccc3)ccc2o1  AC50 (cytopathic effect, cell-based CPE; USA_WA1/2020): 25.1 µM
CCCC(CCC)C(=O)O  viral replication inhibition (Vero E6; concentration not given, NYC laboratory): inactive
CCCN(CCC)CCNC(=O)c1cc(Sc2ccc(Cl)cc2)nc2ccccc12  efficacy (cytopathic effect; USA_WA1/2020; first round 5-point): 97.2%
c1ccc(CN(CCN(Cc2ccccn2)Cc2ccccn2)Cc2ccccn2)nc1  EC50 (viral replication, high-content imaging screen; BetaCov/Belgium/GHB-03021/2020; cell-based): > 100 µM
COc1cc(C2C(C#N)=C(N)Oc3c2c(C)nn3-c2ccc(Cl)cc2)cc(OC)c1OC (centres unmarked)  Ct value (RT-qPCR, refers to: viral RNA; Vero; 1 µM; higher means less virus): 23.3 cycles
Cc1ccc(NS(=O)(=O)c2cccc(C(=O)NC3CCN(c4ncnc5[nH]cnc45)CC3)c2)cc1  relative infection (A549-ACE2, Wuhan-Hu-1; 66.67 µM; relative to: untreated): 33.5%
Cc1c(-c2ccccc2)oc2c(C(=O)OCCN3CCCCC3)cccc2c1=O  IC50 (viral replication; A549 expressing ACE2; inactive set pIC50 4): > 10 µM
Cc1nn(-c2ccc(Cl)cc2)c2c1C(c1ccc(Cl)c(Cl)c1)C(C#N)=C(N)O2 (centres unmarked)  viral reduction (viral replication; Vero; 10 µM): 2.35%
COc1ccc(CCN2CCC(Nc3nc4ccccc4n3Cc3ccc(F)cc3)CC2)cc1  EC90 (viral replication; 293T-ACE2, USA-WA1/2020): 2.19 µM
